Measurements pooled from the literature.
Numbered parts are unrelated; each lists some results of a single study.

Set 1 — technique: protein-binding microarray; molecule type: double-stranded DNA, one strand shown; sample: in vitro; concentration: not given; direction: higher = stronger binding
Target: Myc proto-oncogene protein, bHLH-zipper, MAX partner unstated (MYC, Homo sapiens, UniProt P01106, residues 368-449)
UniProt P01106, sequence (368-449, looked up): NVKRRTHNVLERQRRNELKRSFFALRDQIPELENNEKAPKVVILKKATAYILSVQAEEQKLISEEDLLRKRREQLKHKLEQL
Notes: k-mer, scored over probes, only values ≥0.25
Oligonucleotide	E-score
ACATGGTG	0.374
CAAACCAC	0.255
AGCCACAC	0.308
CCCACGCG	0.454
ACCCATGC	0.396
GTGGGTGA	0.263
CCGCATGA	0.383
CACGCGTA	0.43
AGGGGCGG	0.299
GTGCAGAA	0.271
CGTGTATA	0.26
ATCACGCG	0.417
ATAACCAC	0.338
CATGTGTC	0.463
GTGCGTGA	0.272
ATGCTGCC	0.256
CACGCGTG	0.455

Set 2 — technique: RNAcompete; molecule type: RNA; sample: in vitro; concentration: 20 nM; notes: 7-mer, probes averaged, single round; reference: mean of 7-mers; direction: higher = stronger binding
Target: PABPC1L2, full length, GST fusion (mouse, UniProt A0ABA7IW68)
Target sequence (chain): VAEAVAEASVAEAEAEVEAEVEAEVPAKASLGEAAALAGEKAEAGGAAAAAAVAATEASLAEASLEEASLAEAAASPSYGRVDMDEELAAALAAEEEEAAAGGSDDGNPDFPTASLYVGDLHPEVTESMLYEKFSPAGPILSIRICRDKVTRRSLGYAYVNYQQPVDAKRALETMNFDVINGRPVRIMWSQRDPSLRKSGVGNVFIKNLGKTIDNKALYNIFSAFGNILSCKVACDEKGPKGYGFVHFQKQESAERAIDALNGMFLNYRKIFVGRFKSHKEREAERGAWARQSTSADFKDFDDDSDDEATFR
Oligonucleotide	7-mer Z-score
CCUGGGC	-0.246
UGAGACC	0.017
UUCCUGU	-0.362
AUCGGGU	-0.0319
UCCGUUC	-0.369
UACGGCG	-0.0446
GAUGAAA	0.408
UGAUAUG	-0.168
CCGGUCG	-0.112
AGUAGUU	-0.195
GUGGUGA	-0.0681
UACAGCC	-0.237
UGAUGCC	-0.17
GCGUGUA	-0.124
CUGGGUU	-0.0754
GUUUCGC	-0.552
UACCUAA	-0.0772
CCAUCGU	-0.373
UAUAAGG	0.173
GGUUGAA	-0.0337
GGCGAGG	0.372
CAAAACG	1.09
CAUCUGC	-0.159
CGCCCCG	-0.34
AAAUUAU	1.08

Set 3 — technique: RNA Bind-n-Seq; molecule type: RNA; sample: in vitro; concentration: 200 nM; notes: whole 134-nt RNA, ends assumed; with: 150 mM KCl; reference: input library; direction: higher = stronger binding
Target: Fragile X messenger ribonucleoprotein 1, C-terminal low-complexity region (Fmr1, Mus musculus, UniProt P35922)
Oligonucleotide	log2 enrichment
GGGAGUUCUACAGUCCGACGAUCUGGGAGGUGGAUUUUGUUUAUUUUUUUAGCUCAUUUCCAGGGGUGGGAAUUUUUUUUUAACAUGUGUCAUGAAUAAAGUUGUUUUUGAAAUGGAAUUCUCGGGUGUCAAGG	0.152
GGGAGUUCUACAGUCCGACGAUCUACAGACAACACGCACCCACACAGACACAGAGGGAAGGGGUUGGGAUGGGGACAGGGUGCACAGCAGGGCGGGGUAGGACCCCAGCCCCUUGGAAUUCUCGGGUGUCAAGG	1.25
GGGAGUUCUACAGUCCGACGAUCACCAUGCAGGUGGGCAUCUUUGGGAAGUGGGGCAAGGGGGGGAUAGCGAGGGGGGUAACACUUUGGGAACAGGUGGUCCCAGGUCGUUUCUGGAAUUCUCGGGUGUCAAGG	0.531
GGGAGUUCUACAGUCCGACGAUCUGGCGCUGGUGGCAUGCGGGGAGGAAGAGGUGGCCUCAUGGAUCGUGGUGGUCCCGGUGGAAUGUUCAGAGGUGGCCGUGGUGGAGACAGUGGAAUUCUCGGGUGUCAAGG	0.434
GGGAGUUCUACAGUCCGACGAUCGCAGGAAGUAAAAACAAAUGGAAAUGCUUCGGAUAGUGGCAGGGGUGGGGGUUGCUAAGGAAAGGGUGGGAUAAAAGUGGGUAAAGAGUUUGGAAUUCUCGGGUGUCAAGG	0.302
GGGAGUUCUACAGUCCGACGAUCACCAUGCAGGUGGGCAUCUUUGGGAAGUGGGGCAAGGGGGGGAUAGGGAGGGGGGUAACACUUUGGGAACAGGUGGUCCCAGGUCGUUUGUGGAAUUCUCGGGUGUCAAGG	0.78
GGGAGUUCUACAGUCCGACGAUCUCAAGUCCUGUGCUACACAUCGUAUGUACCGAAUCGGUUUGGUGGAAAAAAAGGAAAGUAUUAUGUUACGCCGUUCGGAUCUGCACUUCCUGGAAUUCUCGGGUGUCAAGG	-0.268
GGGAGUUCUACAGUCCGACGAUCAAGUCCUGUGCUACACAUCGUAUGUACCGAAUCAAACCCAAAUUUAAAUUUUUAAAAAAGUAUUAUGUUACGCCGUUCGGAUCUGCACUUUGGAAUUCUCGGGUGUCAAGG	0.237
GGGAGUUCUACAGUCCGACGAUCGUCCUGUGCUACACAUCGUAUGUACCGAAUCGGGUUUUUUUGGGAGGGUUUUUUUGGGAAAGUAUUAUGUUACGCCGUUCGGAUCUGCACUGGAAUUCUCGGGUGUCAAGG	0.058
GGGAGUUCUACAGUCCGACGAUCGAAGAUUGGCUUAAAAUGGCUACUGUGAUGGGAACAGUGUCUUAGGGAGAUGCAGCUUGGACUUGAGGUAAAUUGAAUACUUUACAACUGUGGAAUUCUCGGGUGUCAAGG	0.0226

Set 4 — technique: RNA Bind-n-Seq; molecule type: RNA; sample: in vitro; concentration: 365 nM; reference: no-protein control; direction: higher = stronger binding
Target: RNA binding protein fox-1 homolog 2, RRM domain, GST-SBP tag (RBFOX2, Homo sapiens, UniProt O43251-10, residues 100-194)
Notes: natural RNA segment, single round, ends assumed
Construct (chain): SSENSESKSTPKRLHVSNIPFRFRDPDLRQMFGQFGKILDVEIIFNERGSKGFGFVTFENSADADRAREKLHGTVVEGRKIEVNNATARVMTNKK
Oligonucleotide	RBNS enrichment (R)
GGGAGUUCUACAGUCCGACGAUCUGUGCGCUCGAGUGUGUAAGUGUGGGUGUGUGGGUGUGUGUGUGUGGUCUGCUCAUCUCUUUAGGGAACUUUGAGGUGGGCGGUGGCAUAUGGAGGGGUGUCAGGUUCUAUGGAAUUCUCGGGUGCCAA	1.34
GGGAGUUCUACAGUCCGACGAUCCAUUCCUGCCUUUCCUGGGAAGGGCCUGGCCCUGAUCUAGAGUCUUAGCUAAGGAGCUGAGAAACAGCCACAGUACUCCCUUCUCUUCGCGCACAGGGCCCUCUCUCUUAUGGAAUUCUCGGGUGCCAA	0.334
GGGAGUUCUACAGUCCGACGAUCCCCGUGGCGGAAGCUGGUUUUGCAAGGACUGUGUAAGCUGUAUGCGUUCUAGCUGUAUGCGUUCUGUAGUCUUUUCUUAGGUGGGUAACAUUUUCAAUAACGCGCGCACAUGGAAUUCUCGGGUGCCAA	0.61
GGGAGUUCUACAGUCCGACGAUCACCCCUGUCUGGUGAUAUGCUAUACCCCAGUGCUGCCUACACGUGCUUUAGCUGUAGAGCUGGGUAUACUGUUGAUCCAGCUGUCCGUCAGGGACUUGAUAACCUGAUGUUGGAAUUCUCGGGUGCCAA	0.416
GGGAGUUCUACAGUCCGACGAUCACUUGUUCUGGCAUUUAUAAAUAGAAAGGACUGUGAGCUGUGGGCUAUGGUCUAAUGUUCAAAGAUAUGGGUGGACAGGACUGUGGAAGAUGGACAUGAUAAACCAGUUCUGGAAUUCUCGGGUGCCAA	0.823
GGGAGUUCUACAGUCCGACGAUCUGAUAGCUAUUUUCAUUUGCUCUAUUUUCCUCUGCAUUGUACUAAUCUGUUACUCAGUGUUAGUCUUCAUUUUUCUGUGUUGGAAACCUGCGUCAUGUAAAUAUCUGCAAUGGAAUUCUCGGGUGCCAA	0.264
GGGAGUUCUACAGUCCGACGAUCUCCUGAGUCUUCAGGUGCACACAGCCUUCUUGUGGAGCUACUUUUGCAAAUAUUACAAGGUGGGGGGACACUAAUUGUUGCUGCUAGUGCUGUCUAAUAACGUGGUCAUUUGGAAUUCUCGGGUGCCAA	0.731
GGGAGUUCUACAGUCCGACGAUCCAGUGCAUGAUGUUUAAGGCCACAUAUAGUCCAGCUGAUGCCAAUAAUAAAAGACAAGAAACCAAGUGGGCUGGUAUUUUCUCUAUGCAAAAUGUCUGUGGAGAUGGAUGUGGAAUUCUCGGGUGCCAA	1.13
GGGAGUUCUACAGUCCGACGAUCUCAUCGUAGUGCGGGCCGUAUUAGAGGCAGUGGGGUACGUUAGACUCAGAUGGAAAAGUAUUCUAGGUGCCAGUGUUAGGAUGUCAGUUUUACAAAAUAAUGAAGCAAUUUGGAAUUCUCGGGUGCCAA	0.634
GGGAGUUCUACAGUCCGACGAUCUUGCACUGAGCUUGCCAGUGGUGACUGCCAGGAACGCCUAGGAUCCACUUUGGUGGCUGUUGUUGCAGAAGACUAAACUGCUUUGGACUAUUUAACGAUUGCCUGACAGUUGGAAUUCUCGGGUGCCAA	0.331
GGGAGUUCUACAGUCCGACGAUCUGUCUGUGUCACUCCCCUCCCUUCCAGACUGGGCCUGGCUGCUGGGAUCCCUCUCAUGCGGUGGGUCCCAGGGACACUAGAGCCCCUGGUCUGAGAGGGAGAAGCCUGGAUGGAAUUCUCGGGUGCCAA	0.178
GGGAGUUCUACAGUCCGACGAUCGUCUGCAGCCCGGGCUGCCUGGGCCACAGCCUGCCAGUGUGGGCAGUGUGACGAAAGGCGGCCUGUACUGCCCUAAGAAAUCUGAUGUAAAGUUUUUGUAUAUUUCAUAUUGGAAUUCUCGGGUGCCAA	0.324
